Published values collected from several papers.
Compare with care: the assays were run in different laboratories. “And” joins repeats or separate records; there may be more than shown. ± marks the error that the study gave.
Chain of UniProt Q13310 (whole entry, looked up): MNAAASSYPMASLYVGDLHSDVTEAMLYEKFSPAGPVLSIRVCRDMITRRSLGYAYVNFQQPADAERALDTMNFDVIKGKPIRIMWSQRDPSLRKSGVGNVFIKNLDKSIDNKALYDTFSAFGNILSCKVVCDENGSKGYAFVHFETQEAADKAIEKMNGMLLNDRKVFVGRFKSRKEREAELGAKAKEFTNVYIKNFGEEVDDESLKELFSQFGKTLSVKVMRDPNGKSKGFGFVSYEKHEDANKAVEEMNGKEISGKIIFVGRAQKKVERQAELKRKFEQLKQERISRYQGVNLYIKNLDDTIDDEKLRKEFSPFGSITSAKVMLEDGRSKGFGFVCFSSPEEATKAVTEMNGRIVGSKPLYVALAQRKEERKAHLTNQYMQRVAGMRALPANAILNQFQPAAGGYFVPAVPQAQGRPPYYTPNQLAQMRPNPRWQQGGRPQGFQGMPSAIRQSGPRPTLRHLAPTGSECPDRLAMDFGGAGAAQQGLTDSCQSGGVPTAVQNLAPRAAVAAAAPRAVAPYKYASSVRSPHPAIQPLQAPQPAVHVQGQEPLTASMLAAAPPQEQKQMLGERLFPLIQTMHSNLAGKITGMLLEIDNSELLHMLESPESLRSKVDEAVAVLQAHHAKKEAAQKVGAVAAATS

For `Cc1ccc2ccccc2c1`, the Km was 2.9 µM and 2.88 µM (metabolism; pooled human liver microsomes; pH 7.4).
`COc1ncnn2ccc(-c3cnc4nc(C)n(Cc5nnc([C@@H](C)F)o5)c4c3)c12`: “patients with diarrhea” 7.1% (human; oral, dose not given, grade 3).
`O=[N+]([O-])c1ccc2c(c1)S(=O)(=O)C=C2` gave a plateletcrit of 5.44 mL/L (male C57BL/6 mice, blood; intraperitoneal, 20 mg/kg, day 8, group average).
For `C[C@@H](O)[C@@H](CO)NC(=O)[C@@H](CCCNC(=N)N)NC(=O)[C@@H]1CCCN1C(=O)[C@@H]1CSSC[C@H](NC(=O)[C@H](Cc2ccccc2)NC(=O)CN2CCN(CC(=O)O)CCN(CC(=O)O)CCN(CC(=O)O)CC2)C(=O)N[C@@H](Cc2ccc(O)cc2)C(=O)N[C@@H](Cc2ccccc2)C(=O)N[C@@H](CCC(N)=O)C(=O)N[C@@H](CC(N)=O)C(=O)N1` [gallium-68 labelled], the tissue uptake was 0.12 %ID/g (healthy Wistar rat, large intestine; intravenous, 8 MBq, 60 min).
`S=c1oc(-c2ccccc2)nn1CN1CCN(Cc2ccccc2)CC1` gave a serum ALT of 40 ± 4.4 U/L (Wistar rat female; oral, 100 mg/kg, acute toxicity OECD 423).
`O=S(=O)(Nc1ccccc1)c1ccc(NC(=S)Nc2ccccc2)cc1` — result for “blood chemistry level”: 205 mg/dL (measured: TRIG; female mouse, blood; oral, 20 mg/kg daily, 14 days).
`COc1cc2c(Oc3ccc4[nH]c(C)cc4c3F)ccnc2cc1OCC1(N)CC1`: “grade 1-2 QTc prolongation” 0% (paediatric refractory sarcoma patients; 8 mg).
For `CC[C@H](C)[C@@H]1NC(=O)[C@@H]2CCCN2C(=O)[C@H](CC(C)C)NC(=O)[C@H](CC(C)C)NC(=O)CNC(=O)[C@@H](NC(=O)[C@@H](NC(=O)[C@H](CC(=O)O)NC(=O)CNC(=O)[C@@H](NC(=O)[C@H](C)NC(=O)CNC(=O)[C@H](CCCCN)NC(=O)[C@H](CC(C)C)NC(=O)[C@H](CC(C)C)NC(=O)[C@H](CCCCN)NC(=O)CNC(=O)[C@@H](NC(=O)[C@@H](N)CC(C)C)C(C)C)C(C)C)C(C)C)CSSC[C@@H](C(=O)O)NC1=O`, “log2 fold change” read 0.024 (RNA-seq, measured: Bnip2; mouse, traumatic brain injury model, frontal cortex and hippocampus; dose not given; relative to: TBI alone).
`CO[C@H]1C[C@@H]2CC[C@@H](C)[C@@](O)(O2)C(=O)C(=O)N2CCCC[C@H]2C(=O)O[C@H]([C@H](C)C[C@@H]2CC[C@@H](OC(=O)NCCOCCOCCOCCOCCOCCOCCOCCOCCC(=O)N3CCc4cc(Cn5nc(-c6ccc7oc(N)nc7c6)c6c(N)ncnc65)ccc4C3)[C@H](OC)C2)C[C@@H](O)[C@H](C)/C=C(\C)[C@@H](O)[C@@H](OC)C(=O)[C@H](C)C[C@H](C)/C=C/C=C/C=C/1C` — result for “maculopapular rash incidence”: 0% (patients with advanced solid tumours; intravenous, 12 mg weekly, grade 3 or higher).
The IC50 of `COc1cc(Nc2ncc(F)c(Nc3ccc4c(n3)NC(=O)C(C)(C)O4)n2)cc(OC)c1OC` is reported as > 10 µM (NMDA receptor glycine site).
With `CC[C@H](C)[C@H](NC(=O)[C@H](Cc1ccccc1)NC(=O)[C@H](CCC(=O)O)NC(=O)[C@H](CCCNC(=N)N)NC(=O)[C@H](C)NC(=O)[C@H](C)NC(=O)[C@H](CCC(N)=O)NC(=O)[C@H](CCC(=O)O)NC(=O)[C@H](CCC(=O)O)NC(=O)[C@H](CC(C)C)NC(=O)[C@H](Cc1ccc(O)cc1)NC(=O)[C@H](CO)NC(=O)[C@H](CO)NC(=O)[C@@H](NC(=O)[C@H](CC(=O)O)NC(=O)[C@H](CO)NC(=O)[C@@H](NC(=O)[C@H](Cc1ccccc1)NC(=O)[C@@H](NC(=O)CNC(=O)[C@H](CCC(=O)O)NC(=O)[C@H](C)NC(=O)CCc1c[nH]cn1)[C@@H](C)O)[C@@H](C)O)C(C)C)C(=O)N[C@@H](C)C(=O)N[C@@H](Cc1c[nH]c2ccccc12)C(=O)N[C@@H](CC(C)C)C(=O)N[C@H](C(=O)N[C@@H](CCCNC(=N)N)C(=O)NCC(=O)N[C@@H](CCCNC(=N)N)C(=O)N[C@@H](CCCCNC(=O)COCCOCCNC(=O)COCCOCCNC(=O)CC[C@H](NC(=O)CCCCCCCCCCCCCCCCC(=O)O)C(=O)O)C(=O)NCC(=O)NCC(=O)N[C@@H](CO)C(=O)N[C@@H](CCCCNc1c(NCCCCCN(O)C(=O)CCC(=O)NCCCCCN(O)C(=O)CCC(=O)NCCCCCN(O)C(C)=O)c(=O)c1=O)C(=O)O)C(C)C` [zirconium-89 labelled] the tissue uptake was 0.12 %ID/g (ex vivo gamma counting; rat, femur; subcutaneous, 3 nmol/kg, 24 h, added: [89Zr]-labelled peptide).
For `O=C1Nc2cc3[nH]nc(-c4ccncc4)c3cc2CN1Cc1ccccc1`, “patients with dyspepsia” read 0% (CTCAE v4.03; advanced solid tumour patients; intravenous, 3.6 mg/kg).
`C=CC(=O)N1CC[C@H](n2nc(C#Cc3cc(OC)cc(OC)c3)c3c(N)ncnc32)C1`: “adverse drug reaction incidence” 20% (patients with advanced solid tumours; oral, dose not given, Vomiting, any grade, QD, added: phosphate-binding therapy).
The remaining binding of `C[C@H]1CN(c2n[nH]c3nc(N[C@H]4CC[C@H](NS(=O)(=O)CCC(F)(F)F)CC4)ncc23)CCO1` is reported as 1.14 (Polyadenylate-binding protein 4 (Homo sapiens, UniProt Q13310); Kinobeads competition, measured: PABPC4; 0.16 µM, unit not given; relative to: vehicle).
`C[C@@H]1OC(=O)NN=C1c1ccc(-c2ccc(F)cc2)c(C(F)(F)F)c1` — result for “patients with adverse event”: 0% (phase I trial, measured: Anaemia all grades; human patients; 5 mg loading then 0.25 mg daily).
For `CN1CC[C@@H](c2c(O)cc(O)c3c(=O)cc(-c4ccc(C(F)(F)F)cc4Cl)oc23)[C@@H]1CO`, “patients with adverse event” read 0% (measured: Leukopenia; relapsed B-cell malignancies or AML; oral, 100 mg, grade 3-4, continuous dosing).
